# Measurements gathered from unrelated publications.
# Compare with care: the assays were run in different laboratories.
# U2AF2: U2AF2 148-342 (Homo sapiens, UniProt P26368)
# Sequence of UniProt P26368 (whole entry, looked up): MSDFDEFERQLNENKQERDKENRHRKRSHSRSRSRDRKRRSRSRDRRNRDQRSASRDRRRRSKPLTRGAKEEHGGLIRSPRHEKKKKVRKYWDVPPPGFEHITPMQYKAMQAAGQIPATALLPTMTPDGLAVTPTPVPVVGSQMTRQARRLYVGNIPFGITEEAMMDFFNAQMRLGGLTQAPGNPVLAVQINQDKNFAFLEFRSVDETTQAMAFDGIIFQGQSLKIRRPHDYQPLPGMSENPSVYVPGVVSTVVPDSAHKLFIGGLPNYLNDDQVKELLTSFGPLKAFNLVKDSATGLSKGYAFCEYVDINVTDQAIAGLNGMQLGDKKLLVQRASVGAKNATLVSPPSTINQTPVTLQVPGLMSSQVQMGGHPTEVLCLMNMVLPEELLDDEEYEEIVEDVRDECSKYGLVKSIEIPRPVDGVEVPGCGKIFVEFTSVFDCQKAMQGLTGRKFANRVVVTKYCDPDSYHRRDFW
# B1: human lamin A/C; sequence looked up; chain METPSQRRATRSGAQASSTPLSPTRITRLQEKEDLQELNDRLAVYIDRVRSLETENAGLRLRITESEEVVSREVSGIKAAYEAELGDARKTLDSVAKERARLQLELSKVREEFKELKARNTKKEGDLIAAQARLKDLEALLNSKEAALSTALSEKRTLEGELHDLRGQVAKLEAALGEAKKQLQDEMLRRVDAENRLQTMKEELDFQKNIYSEELRETKRRHETRLVEIDNGKQREFESRLADALQELRAQHEDQVEQYKKELEKTYSAKLDNARQSAERNSNLVGAAHEELQQSRIRIDSLSAQLSQLQKQLAAKEAKLRDLEDSLARERDTSRRLLAEKEREMAEMRARMQQQLDEYQELLDIKLALDMEIHAYRKLLEGEEERLRLSPSPTSQRSRGRASSHSSQTQGGGSVTKKRKLESTESRSSFSQHARTSGRVAVEEVDEEGKFVRLRNKSNEDQSMGNWQIKRQNGDDPLLTYRFPPKFTLKAGQVVTIWAAGAGATHSPPTDLVWKAQNTWGCGNSLRTALINSTGEEVAMRKLVRSVTVVEDDEDEDGDDLLHHHHGSHCSSSGDPAEYNLRSRTVLCGTCGQPADKASASGSGAQVGGPISSGSSASSVTVTRSYRSVGGSGGGSFGDNLVTRSYLLGNSSPRTQSPQNC
# B2: dnaD (Bacillus subtilis, UniProt P39787); chain GSHMKKQQFIDMQEQGTSTIPNLLLTHYKQLGLNETELILLLKIKMHLEKGSYFPTPNQLQEGMSISVEECTNRLRMFIQKGFLFIEECEDQNGIKFEKYSLQPLWGKLYEYIQLAQNQTQERKAEGEQKSLYTIFEEEFARPLSPLECETLAIWQDQDQHDAQLIKHALKEAVLSGKLSFRYIDRILFEWKKNGLKTVEQAKIHSQKFRRVQAKQNEPQKEYKRQVPFYNWLEQ
# B3: PF1070 1-140 C93S (Pyrococcus furiosus, UniProt Q8U1Y4); sequence looked up; chain MPSSSKSDFSFSTLIIPQHYLRAILKVVSSSSVEVCGFLFGKENRVLKVRFIRNRLNSPVEFEMDPEEMLKALEEAEQENLEVVGIFHSHIASPPIPSGKDLEGMKRWPVIWLIVNEKGEYKAWILSEKNKISEVKIVVE
# B4: ADSL (Homo sapiens, UniProt P30566); sequence looked up; chain MAAGGDHGSPDSYRSPLASRYASPEMCFVFSDRYKFRTWRQLWLWLAEAEQTLGLPITDEQIQEMKSNLENIDFKMAAEEEKRLRHDVMAHVHTFGHCCPKAAGIIHLGATSCYVGDNTDLIILRNALDLLLPKLARVISRLADFAKERASLPTLGFTHFQPAQLTTVGKRCCLWIQDLCMDLQNLKRVRDDLRFRGVKGTTGTQASFLQLFEGDDHKVEQLDKMVTEKAGFKRAFIITGQTYTRKVDIEVLSVLASLGASVHKICTDIRLLANLKEMEEPFEKQQIGSSAMPYKRNPMRSERCCSLARHLMTLVMDPLQTASVQWFERTLDDSANRRICLAEAFLTADTILNTLQNISEGLVVYPKVIERRIRQELPFMATENIIMAMVKAGGSRQDCHEKIRVLSQQAASVVKQEGGDNDLIERIQVDAYFSPIHSQLDHLLDPSSFTGRASQQVQRFLEEEVYPLLKPYESVMKVKAELCL
# B5: Pld3 63-488 (Mus musculus, UniProt O35405); sequence looked up; chain GDLHLFGPNQRPAPCYDPCEAVLVESIPEGLEFPNATTSNPSTSQAWLGLLAGAHSSLDIASFYWTLTNNDTHTQEPSAQQGEEVLQQLQALAPRGVKVRIAVSKPNGPLADLQSLLQSGAQVRMVDMQKLTHGVLHTKFWVVDQTHFYLGSANMDWRSLTQVKELGVVMYNCSCLARDLTKIFEAYWFLGQAGSSIPSTWPRSFDTRYNQETPMEICLNGTPALAYLASAPPPLCPSGRTPDLKALLNVVDSARSFIYIAVMNYLPTMEFSHPRRFWPAIDDGLRRAAYERGVKVRLLISCWGHSDPSMRSFLLSLAALHDNHTHSDIQVKLFVVPTDESQARIPYARVNHNKYMVTERASYIGTSNWSGSYFTETAGTSLLVTQNGHGGLRSQLEAVFLRDWESPYSHDLDTSANSVGNACRLL
# B6: CSRP2, human; sequence looked up; chain MPVWGGGNKCGACGRTVYHAEEVQCDGRSFHRCCFLCMVCRKNLDSTTVAIHDEEIYCKSCYGKKYGPKGYGYGQGAGTLNMDRGERLGIKPESVQPHRPTTNPNTSKFAQKYGGAEKCSRCGDSVYAAEKIIGAGKPWHKNCFRCAKCGKSLESTTLTEKEGEIYCKGCYAKNFGPKGFGYGQGAGALVHAQ
# B7: GGPS1 R235C (Homo sapiens, UniProt O95749); sequence looked up; chain MEKTQETVQRILLEPYKYLLQLPGKQVRTKLSQAFNHWLKVPEDKLQIIIEVTEMLHNASLLIDDIEDNSKLRRGFPVAHSIYGIPSVINSANYVYFLGLEKVLTLDHPDAVKLFTRQLLELHQGQGLDIYWRDNYTCPTEEEYKAMVLQKTGGLFGLAVGLMQLFSDYKEDLKPLLNTLGLFFQIRDDYANLHSKEYSENKSFCEDLTEGKFSFPTIHAIWSRPESTQVQNILCQRTENIDIKKYCVHYLEDVGSFEYTRNTLKELEAKAYKQIDARGGNPELVALVKHLSKMFKEENE
# B8: NAC92 12-170 (Arabidopsis thaliana, UniProt Q9FKA0); sequence looked up; chain VEDEEHIDLPPGFRFHPTDEELITHYLKPKVFNTFFSATAIGEVDLNKIEPWDLPWKAKMGEKEWYFFCVRDRKYPTGLRTNRATEAGYWKATGKDKEIFKGKSLVGMKKTLVFYKGRAPKGVKTNWVMHEYRLEGKYCIENLPQTAKNEWVICRVFQK
# B9: PGL-3 1-447 (Caenorhabditis elegans, UniProt G5EBV6); sequence looked up; chain MEANKRQIVEVDGIKSYFFPHLAHYLASNDELLVNNIAQANKLAAFVLGATDKRPSNEEIAEMILPNDSSAYVLAAGMDVCLILGDDFRPKFDSGAEKLSQLGQAHDLAPIIDDEKKISMLARKTKLKKSNDAKILQVLLKVLGAEEAEEKFVELSELSSALDLDFDVYVLAKLLGFASEELQEEIEIIRDNVTDAFEACKPLLKKLMIEGPKIDSVDPFTQLLLTPQEESIEKAVSHIVARFEEASAVEDDESLVLKSQLGYQLIFLVVRSLADGKRDASRTIQSLMPSSVRAEVFPGLQRSVFKSAVFLASHIIQVFLGSMKSFEDWAFVGLAEDLESTWRRRAIAELLKKFRISVLEQCFSQPIPLLPQSELNNETVIENVNNALQFALWITEFYGSESEKKSLNQLQFLSPKSKNLLVDSFKKFAQGLDSKDHVNRIIESLEK
# B10: clcA 1-465 C85A/K243C (Escherichia coli, UniProt P37019); chain MKTDTPSLETPQAARLRRRQLIRQLLERDKTPLAILFMAAVVGTLVGLAAVAFDKGVAWLQNQRMGALVHTADNYPLLLTVAFLASAVLAMFGYFLVRKYAPEAGGSGIPEIEGALEDQRPVRWWRVLPVKFFGGLGTLGGGMVLGREGPTVQIGGNIGRMVLDIFRLKGDEARHTLLATGAAAGLAAAFNAPLAGILFIIEEMRPQFRYTLISIKAVFIGVIMSTIMYRIFNHEVALIDVGCLSDAPLNTLWLYLILGIIFGIFGPIFNKWVLGMQDLLHRVHGGNITKWVLMGGAIGGLCGLLGFVAPATSGGGFNLIPIATAGNFSMGMLVFIFVARVITTLLCFSSGAPGGIFAPMLALGTVLGTAFGMVAVELFPQYHLEAGTFAIAGMGALLAASIRAPLTGIILVLEMTDNYQLILPMIITGLGATLLAQFTGGKPLYSAILARTLAKQEAEQLARSK
# B11: tad1 1-493 (Ustilago maydis, UniProt A0A0U2UYC4); chain MAPALNANPTTKRDELSAPSASHKLGMSSMASRAAGGGLKLTGLPDLSDSAGTLSDIFGTPQMREIWSDQNRVACYLEIEAALAIVQADLGIIPKNAAHEIVEHCRVQEIDWALYKQKTELIGYPVLGIVQQLVANCKDGLGEYCHWGATTQDITDTATVMQIRQSLTLVKQRLDSIVSSLEHLAEQHRNVPMAARSNLKQAVPITFGFKMARFLATFRRHQQRLVELEKRVYTLEFGGAAGNLSSLGDQGIATHDALAKMLDLAPAEIAWHTEHDRFAEVGTFLGLLTGTLAKLATDIKLMSQTEVGEVGEPFISNRGSSSTMPQKNNPISCVYIHACAANVRQGAAALLDAMQSDHERGTGPWEIIWVQLPLMMNWTSAALNNADFVLRGLQVFPDAMQHNLDLSKGLIVSEAVMMGLGNTLGRQYAHDAVYECCRTAFVQDRPLLDVLLENHEIASKLDRTELEKLCDPANYLGQCSQWIDRVLSRPSSA
# B12: NUMA1 1-505 (Homo sapiens, UniProt Q14980); LD555 dye on C-terminal SNAP; sequence looked up; chain MTLHATRGAALLSWVNSLHVADPVEAVLQLQDCSIFIKIIDRIHGTEEGQQILKQPVSERLDFVCSFLQKNRKHPSSPECLVSAQKVLEGSELELAKMTMLLLYHSTMSSKSPRDWEQFEYKIQAELAVILKFVLDHEDGLNLNEDLENFLQKAPVPSTCSSTFPEELSPPSHQAKREIRFLELQKVASSSSGNNFLSGSPASPMGDILQTPQFQMRRLKKQLADERSNRDELELELAENRKLLTEKDAQIAMMQQRIDRLALLNEKQAASPLEPKELEELRDKNESLTMRLHETLKQCQDLKTEKSQMDRKINQLSEENGDLSFKLREFASHLQQLQDALNELTEEHSKATQEWLEKQAQLEKELSAALQDKKCLEEKNEILQGKLSQLEEHLSQLQDNPPQEKGEVLGDVLQLETLKQEAATLAANNTQLQARVEMLETERGQQEAKLLAERGHFEEEKQQLSSLITDLQSSISNLSQAKEELEQASQAHGARLTAQVASLTS
# B13: dlg1 1-97 (Drosophila melanogaster, UniProt P31007); sequence looked up; chain MPVKKQEAHRALELLEDYHARLSEPQDRALRIAIERVIRIFKSRLFQALLDIQEFYELTLLDDSKSIQQKTAETLQIATKWEKDGQAVKIADFIKSS
# B14: sodN mature (Streptomyces coelicolor, UniProt P80735); sequence looked up; chain HCDLPCGVYDPAQARIEAESVKAVQEKMAGNDDPHFQTRATVIKEQRAELAKHHVSVLWSDYFKPPHFEKYPELHQLVNDTLKALSAAKGSKDPATGQKALDYIAQIDKIFWETKKA
# B15: CEACAM1 35-141 (Homo sapiens, UniProt P13688-1); sequence looked up; chain QLTTESMPFNVAEGKEVLLLVHNLPQQLFGYSWYKGERVDGNRQIVGYAIGTQQATPGPANSGRETIYPNASLLIQNVTQNDTGFYTLQVIKSDLVNEEATGQFHVY
# Sequence of UniProt Q00535 (whole entry, looked up): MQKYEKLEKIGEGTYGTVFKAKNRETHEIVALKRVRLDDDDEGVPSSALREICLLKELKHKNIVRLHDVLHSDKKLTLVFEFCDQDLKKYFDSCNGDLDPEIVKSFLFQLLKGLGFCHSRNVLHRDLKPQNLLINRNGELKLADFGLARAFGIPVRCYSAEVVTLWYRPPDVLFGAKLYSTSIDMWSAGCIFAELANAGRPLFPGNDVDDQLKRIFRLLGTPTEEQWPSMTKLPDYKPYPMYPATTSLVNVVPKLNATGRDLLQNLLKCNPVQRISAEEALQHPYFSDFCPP
# Sequence of UniProt Q12154 (whole entry, looked up): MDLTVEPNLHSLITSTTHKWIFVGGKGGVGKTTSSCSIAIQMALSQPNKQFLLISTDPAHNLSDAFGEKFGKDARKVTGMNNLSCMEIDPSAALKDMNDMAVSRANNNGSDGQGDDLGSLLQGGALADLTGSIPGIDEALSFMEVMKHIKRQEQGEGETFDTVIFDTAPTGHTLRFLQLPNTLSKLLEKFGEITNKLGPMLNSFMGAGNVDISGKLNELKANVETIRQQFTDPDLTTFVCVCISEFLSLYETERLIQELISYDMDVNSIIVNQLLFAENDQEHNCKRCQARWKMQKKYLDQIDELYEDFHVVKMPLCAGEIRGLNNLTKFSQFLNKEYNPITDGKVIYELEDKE
Molecule,tested on,assay,system,conditions,scale,endpoint,value
B1 (human lamin A/C),PP6C (human),"co-immunoprecipitation, IP-MS",CYB5R4 knockout cells,concentration not given,reference: CYB5R4 knockout over parental,log2 fold change,0.52
CAGUUGUGC (ssRNA),U2AF2,sequencing of bound RNA,RNA,motif only,,Kd,2.57 µM
B2 (dnaD),itself,SEC,,,,subunits per oligomer,2
B3 (PF1070 1-140 C93S),itself,SEC,,,,subunits per oligomer,2
KNAFWDRCLSVINLMSSKMLQINA,"Cyclin-dependent kinase 5, with p25 (CDK5, Homo sapiens, UniProt Q00535)","phosphotransferase activity, radiometric",peptide,"concentration not given, 10% DMSO, added: histone substrate",reference: p5-WT peptide,activity change,1%
B4 (ADSL),itself,SEC-MALS,,,,subunits per oligomer,4
UGUUGCCUU (ssRNA),U2AF2,sequencing of bound RNA,RNA,motif only,,Kd,6.75 µM
B5 (Pld3 63-488),itself,X-ray crystallography,,,,subunits per oligomer,2
"B6 (CSRP2, human)",CYB5R4 knockout human cells,"PP4 interaction, 3xFLAG-PP4C IP-MS",,concentration not given,reference: CYB5R4 KO over parental,log2 fold change,0.4
"GET3, NEM-alkylated cysteines (Saccharomyces cerevisiae, UniProt Q12154)",itself,SEC,,,,subunits per oligomer,> 4
B7 (GGPS1 R235C),itself,native MS,,,,subunits per oligomer,2
B8 (NAC92 12-170),itself,SEC,,pH 7.5,,subunits per oligomer,2
B9 (PGL-3 1-447),itself,mass photometry,,,,subunits per oligomer,2
B10 (clcA 1-465 C85A/K243C),itself,SEC,,,,subunits per oligomer,2
B11 (tad1 1-493),itself,SEC-MALS,,,,subunits per oligomer,4
B12 (NUMA1 1-505),itself,mass photometry,,,,subunits per oligomer,2
B13 (dlg1 1-97),itself,SEC,,,,subunits per oligomer,2
"LSRMNREELEDSFFRLREDHMLVKELSWKQQDEIKRLRTTLLRLTAAGRDL (RPGRIP1 38-88 (Homo sapiens, UniProt Q96KN7-1); sequence looked up)",itself,SEC-MALS,,,,subunits per oligomer,2
B14 (sodN mature),itself,SEC,,,,subunits per oligomer,6
"NRSSKYLDEAYEEMVNIIEYNKELQAKVNILRRQLAELETEDGMQESP (MTMR9 502-549 (Homo sapiens, UniProt Q96QG7); sequence looked up)",itself,cross-linking,,,,subunits per oligomer,3
B15 (CEACAM1 35-141),itself,SEC,,,,subunits per oligomer,2
